Results pooled from the literature.
Parts stem from different laboratories: compare values within a part only.

Set 1
Target: RING finger protein unkempt homolog, zinc fingers 1-6, GST-SBP tag (UNK, Homo sapiens, UniProt Q9C0B0, residues 30-357)
Chain of UniProt Q9C0B0 (30-357, looked up): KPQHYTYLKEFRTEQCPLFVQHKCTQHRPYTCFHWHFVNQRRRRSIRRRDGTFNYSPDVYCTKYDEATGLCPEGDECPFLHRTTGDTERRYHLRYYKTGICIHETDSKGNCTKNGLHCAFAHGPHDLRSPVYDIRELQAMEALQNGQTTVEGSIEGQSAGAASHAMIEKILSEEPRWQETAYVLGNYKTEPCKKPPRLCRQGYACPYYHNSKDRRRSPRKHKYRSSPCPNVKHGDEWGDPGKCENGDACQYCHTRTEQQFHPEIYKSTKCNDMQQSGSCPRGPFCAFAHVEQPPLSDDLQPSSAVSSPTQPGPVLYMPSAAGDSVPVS
Technique: RNA Bind-n-Seq
Form: RNA
Sample: in vitro
Concentration: not given
Setting: RNA with constant flanks, human-mouse chimeric sites, ends assumed
Baseline: input RNA pool
Reading: higher = stronger binding
| Strand | bound/input enrichment |
| --- | --- |
| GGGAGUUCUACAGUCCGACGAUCCAGCUGCAGACAGAAAAGGAUGAGAAGGAGCUGUAUAAGGUACAUUUGAAGAAUACAGAAAUAGAAAAUACGAAGCUUAUGUCAGAGAUACAGACUUUAAAGAAUUUAGAUGGGAACAAACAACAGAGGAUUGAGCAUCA | 1.24 ratio |
| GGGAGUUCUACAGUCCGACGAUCUGUGCAUAUGAUGCUUGAGAUGGUUUUUGCAAAAGCAGACAUCGCUGCAAGGUAAUCCUAAUAGAGAAAAGUGGUAUUUUAAACCUUUGAAAUAAAUGGAUGUAACUGUACCUUGGUACACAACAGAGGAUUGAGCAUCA | 1.4 ratio |
| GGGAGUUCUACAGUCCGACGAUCUAAAUUAGCCAGCACCAUUUCUGUUUCUCCCUGGGCUGCGGAAAGCCAGAAGAUUUUAUCUAGCUUAUACAAGGCUGCUGGUGUUCCCUCUUUUUUUCCCUCUCUCUGUUUUUGGCUGCACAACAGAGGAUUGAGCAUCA | 1.35 ratio |
| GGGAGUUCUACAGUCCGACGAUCCACAGAGGAGAUCUGCUGUUCCUCACGAAUUUCCGGGAGGACCCCAUCAGAGCUGGUGAAAUAGUUGUUUUUAAAGUUGAAGGAAGAGACAUUCCGAUAGUUCACAGAGUAAUCAAAGUUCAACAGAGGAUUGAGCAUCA | 3.67 ratio |
| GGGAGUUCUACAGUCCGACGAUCAACAUUUUGUCAAAUUGUUAUGUUCCUGUGAAACAAGUGAACACUCUGAUACACUUCAUCUGCUUGUACAUCUGUAUGAUAGAGAAAUGUAAAUAUGUUAAUCCAAGAUGAAUUCAACUUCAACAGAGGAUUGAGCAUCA | 0.189 ratio |
| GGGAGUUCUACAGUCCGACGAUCAGAAUCUUGGGACUGUUUUACUUAAUUGGUCAUUGAUAGCUUAACAAACAUGGAGAUGAGAUUAGAAGUUUUGACAUCAACAGGUAUUAAGCAGAAAAAACCAUGGCCACGUGUCUCCUGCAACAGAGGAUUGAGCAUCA | 0.23 ratio |
| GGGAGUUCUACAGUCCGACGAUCUGUGCAUAUGAUGCUUGAGAUGGUUUUUGCAAAAGCAGAAAUCGCUGCAAGGUCAUUACAAUAGAUAAAAGUGGUAUUUUAAACCUUUGAAAGGAAUGGAUGUAACUGUACCUUGGUACACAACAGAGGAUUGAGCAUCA | 0.24 ratio |
| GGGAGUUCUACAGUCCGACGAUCAAUAGAGGAUCCACCUCAAUUGAAGUGGGGAGUAAAGGUGUGGCCACCACACCUAACUUGAUGGAUAUAUAUUUUUUUUAAUAUGAAUCUUCCUGUUCGUCCAGGGAAGAAAGAUUUGUUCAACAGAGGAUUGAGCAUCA | 1.36 ratio |

Set 2
Target: human cyclin B2
Effect on: peptide binding
Technique: yeast competitive growth sequencing
Form: peptide
Organism: Saccharomyces cerevisiae
Strain: cyclin B2-Cln2 fusion
Concentration: concentration not given
Setting: combined libraries
Reading: direction not given
| Molecule | binding enrichment score |
| --- | --- |
| GSPLKALFTSTGL | -0.0894 |
| GAPLKKLFTSTGL | 0.371 |
| GSPLKKLFTSTGA | 0.00241 |

Set 3
Target: Phosphate system positive regulatory protein PHO4, full length, GST-tagged (PHO4, Saccharomyces cerevisiae, UniProt P07270, residues 1-312)
Technique: competition protein-binding microarray
Form: double-stranded DNA, one strand shown
Sample: in vitro
Concentration: 2 µM
Setting: whole 60-bp probe, lowest competitor level
Added: Cbf1 competitor, 0.05 µM
Reading: higher = stronger binding
Target sequence (chain): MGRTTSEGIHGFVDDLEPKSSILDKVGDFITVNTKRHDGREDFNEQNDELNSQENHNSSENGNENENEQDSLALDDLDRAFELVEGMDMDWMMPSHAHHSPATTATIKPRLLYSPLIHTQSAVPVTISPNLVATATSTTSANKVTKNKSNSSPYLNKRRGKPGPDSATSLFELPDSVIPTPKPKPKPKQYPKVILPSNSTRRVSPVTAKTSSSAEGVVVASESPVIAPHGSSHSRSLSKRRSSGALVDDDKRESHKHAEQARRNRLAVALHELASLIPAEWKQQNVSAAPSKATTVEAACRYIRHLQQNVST
| Strand | fluorescence intensity |
| --- | --- |
| TGCGCAACAACTTGAGTCGTGGGTGTATGTCTAGAAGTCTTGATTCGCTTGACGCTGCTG | 7200 a.u. |
| TAGTGCCTCGGAGATACCGTGATGGAATGGGATCGGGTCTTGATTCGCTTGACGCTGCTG | 3570 a.u. |
| TTACCGTCACCCGTACATGTGTGAGCAGAGGTACAAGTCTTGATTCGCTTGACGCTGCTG | 7700 a.u. |
| TAACGTTCGTCGGGACATATGACTTGAAAAATGTCCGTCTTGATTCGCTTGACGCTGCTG | 3830 a.u. |
| ACAAAATGGGTATTTCTCGTGATGGTCGTCCCAAAAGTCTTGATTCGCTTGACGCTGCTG | 4050 a.u. |
| TGTGCGTTATGCTTCCATGTGACGCTACATCTATTGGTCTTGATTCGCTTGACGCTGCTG | 6650 a.u. |
| AGGCCAGTTGCTCAACACGCTACAAGAAGGCAGATGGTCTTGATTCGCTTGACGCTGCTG | 6290 a.u. |
| GATTATTGGCTAAGTACCGTGATGGTGGTAAGATTGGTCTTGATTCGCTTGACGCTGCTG | 5050 a.u. |
| GCAATTGGATCTCACCACGTGGATTTAAAGATGGACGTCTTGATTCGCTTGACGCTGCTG | 16800 a.u. |
| AAGACCGTATGGGAACACGTGGAGGATTAGGCTCGCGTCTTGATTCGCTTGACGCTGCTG | 18100 a.u. |
| ATCAACATCGGCCTCCCCGTGCTAATATGTTAACAGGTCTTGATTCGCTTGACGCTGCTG | 13300 a.u. |
| ATTGTAGAATTTACCCACGTCTGTCCATCAAGAAGAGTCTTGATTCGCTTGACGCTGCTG | 6990 a.u. |
| TTGAGCTTGAAAGAGTGCGTGCAAATCATTCAATCAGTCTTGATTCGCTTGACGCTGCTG | 7300 a.u. |
| CGATTAGCTGAGGATCAGGCGGTACATTGCATACTCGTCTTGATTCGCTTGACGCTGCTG | 3150 a.u. |
| TAGCTCCGCTTTATTCACGTGAAATGGGGTCGAAATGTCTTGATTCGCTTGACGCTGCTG | 9580 a.u. |
| CTTTCCCGATCTTGGATTGTGGGTGTAGCACATTTGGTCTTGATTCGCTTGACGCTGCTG | 4780 a.u. |
| ACAATGGATCCAAATCATGTGCCAGGGAGTGAACCCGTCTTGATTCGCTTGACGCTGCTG | 9290 a.u. |
| CCTTGTTCGAGTTTGGACGTGCGGAGAATCTACCCAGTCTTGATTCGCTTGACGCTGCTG | 5390 a.u. |
| AGTCCTTTTCTTATGCTCGTGGTGATTGTCAGTCTTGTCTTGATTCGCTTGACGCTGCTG | 10700 a.u. |

Set 4
Target: RNA binding protein fox-1 homolog 2, RRM domain, GST-SBP tag (RBFOX2, Homo sapiens, UniProt O43251-10, residues 100-194)
Technique: RNA Bind-n-Seq
Form: RNA
Sample: in vitro
Concentration: 365 nM
Setting: natural RNA segment, single round, ends assumed
Baseline: no-protein control
Reading: higher = stronger binding
Target sequence (chain): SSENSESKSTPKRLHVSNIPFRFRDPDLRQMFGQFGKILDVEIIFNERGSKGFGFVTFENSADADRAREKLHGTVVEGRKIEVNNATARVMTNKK
| Strand | RBNS enrichment (R) |
| --- | --- |
| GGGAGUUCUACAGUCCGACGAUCUCAUCAUGACACAGCAAGCCGUGACCCCUCUGUCUGCUGUACUGGCCCAGCCUCCUGCUCGCACCUCCUGCCCUACCUAGGAAGCCCUCCAGAGGGCCAGCCUCUGCUGAUGGAAUUCUCGGGUGCCAA | 0.379 |
| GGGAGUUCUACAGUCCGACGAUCCCGGAUCCCUCCUCACUUGCCCUGCCACUUUGCAUGGUUUGAUUUUGACCUGGUCCCCCACGUGUGAAGUGUAGUGGCAUCCAUUUCUAAUGUAUGCAUUCAUCCAACAGUGGAAUUCUCGGGUGCCAA | 1.29 |
| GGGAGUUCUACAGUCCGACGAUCCAGGUAACCUUGAGCUCAGCUUGGGCCAGCUUUGAACAGUGCUUCUGAGGUCCCCAGAGACCAAAGCCAGAUCGUCUGUCCCCCACACCUUAGGUGGGCACAGGAGGGCCUGGAAUUCUCGGGUGCCAA | 0.251 |
| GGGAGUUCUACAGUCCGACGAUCCUCAGAUGUAACUGGUAAAGGCUGAUUUCUAAAUUUUCUGUAAUUGCAGCAACCUUUCUCUCCUGUCUACCCUUUUAGUUUACUGUAUGCCAUGGUUUUGUUUUGGUUACUGGAAUUCUCGGGUGCCAA | 0.826 |
| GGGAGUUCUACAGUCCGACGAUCUUAUUUAGGCUUAGUGUUGUGGGCACCAAUGUCGAGCAUCGUUGUGACUUGUGCUGUAUGAUUCUCACUGAAGAAUUUCCUUUCAGCCAAGAAGCAGUGAGGUCUGGGAAUGGAAUUCUCGGGUGCCAA | 0.985 |
| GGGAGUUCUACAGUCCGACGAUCUGGCAUUGGGAAACCUAUGACGGACUGUUUUUGCUGUAGAAGUAGGGAUUUUACAGAAGUCUCCUUGAAUUUGCCCUGCCUGGGGCAGUUUUGCAGAGGAACCUGCCAGAUGGAAUUCUCGGGUGCCAA | 0.247 |
| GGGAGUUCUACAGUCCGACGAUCUACCCAGCAGGUAUCACUUGGUAAAAAUACAAGAGCAAAGCCACUUGAGACUGAAGGUUCUUUAAAGACCGUAAGGAUGGCUUCCGACGUGUCAUGCUGCUGCUGUGAUCUGGAAUUCUCGGGUGCCAA | 0.85 |
| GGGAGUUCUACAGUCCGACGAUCAUUAUACUGACUUUAUAUUAAUUAUUAUAAAACUGUGUUUGUACUGAAGAUGUGUUCAAUAUUUGUGGGAGGUUUGUCAUAAUCAGUUGGUGGGGUUCACUGCUCUGUUGUGGAAUUCUCGGGUGCCAA | 0.587 |

Excerpt of the above (set 3):
| Strand | fluorescence intensity |
| --- | --- |
| TTACCGTCACCCGTACATGTGTGAGCAGAGGTACAAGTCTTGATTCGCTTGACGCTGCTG | 7700 a.u. |
| TAACGTTCGTCGGGACATATGACTTGAAAAATGTCCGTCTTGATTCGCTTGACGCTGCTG | 3830 a.u. |
| ACAAAATGGGTATTTCTCGTGATGGTCGTCCCAAAAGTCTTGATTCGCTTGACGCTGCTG | 4050 a.u. |
| TGTGCGTTATGCTTCCATGTGACGCTACATCTATTGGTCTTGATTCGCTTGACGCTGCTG | 6650 a.u. |
| AGGCCAGTTGCTCAACACGCTACAAGAAGGCAGATGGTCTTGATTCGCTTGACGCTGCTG | 6290 a.u. |
